Assay results pooled from the literature.
Each numbered part is a random draw from the data of one study; scales do not carry over between parts.

Study 1 — method: RNA Bind-n-Seq; molecule type: RNA; medium: in vitro; tested at: not given; reference: input RNA pool; direction: higher = stronger binding
Target: RING finger protein unkempt homolog, zinc fingers 1-6, GST-SBP tag (UNK, Homo sapiens, UniProt Q9C0B0, residues 30-357)
Notes: RNA with constant flanks, human-mouse chimeric sites, ends assumed
Residues (chain): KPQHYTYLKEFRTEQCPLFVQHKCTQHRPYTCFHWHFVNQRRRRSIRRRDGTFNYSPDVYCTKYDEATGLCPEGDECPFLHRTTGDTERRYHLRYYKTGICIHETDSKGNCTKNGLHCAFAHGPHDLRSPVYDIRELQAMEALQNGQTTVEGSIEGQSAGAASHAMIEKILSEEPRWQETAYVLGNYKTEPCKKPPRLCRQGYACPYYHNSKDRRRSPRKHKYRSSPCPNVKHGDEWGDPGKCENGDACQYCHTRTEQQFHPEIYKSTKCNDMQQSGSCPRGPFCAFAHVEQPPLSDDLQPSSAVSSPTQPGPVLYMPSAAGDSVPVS
`GGGAGUUCUACAGUCCGACGAUCUAAAUUAGGGCUGCCGUUUUCUGUUUCUCCCUGGGCUGCGGAAAGCCAGAAGAUUUUAUCUAGCUUAAACCAGGCUGCUGGUGUUCCCUCUUUUUUUCCCUCUCUCUGUUUUUGGCUGCACAACAGAGGAUUGAGCAUCA` gave a bound/input enrichment of 1.14 ratio.
`GGGAGUUCUACAGUCCGACGAUCAGUGUGCAGGAAUUCAUGACCUUUACAAGUCAACUGAUUGUGGAACGCUCGGGGAAAGGCACUAGAGCUUCUGUCAAAGAACAAGAGUAUCUUUGCCAUGUCUACGUCCGGAGCGACAGUCAACAGAGGAUUGAGCAUCA` has a bound/input enrichment of 0.0976 ratio.
For `GGGAGUUCUACAGUCCGACGAUCAUAAAGGCUAUGUUGAGUGGUCCAGGUCAGUUUGCUGAGAAUGAAACCAAUGAGGUCAAUUUUAGAGAGAUCCCCUCACAUGUGCUAUCAAAAGUGUGCAUGUAUUUUACGUACAAGGUCCAACAGAGGAUUGAGCAUCA`, the bound/input enrichment was 0.208 ratio.

Study 2 — method: protein binding microarray; molecule type: double-stranded DNA, one strand shown; medium: in vitro; tested at: not given; reference: not given; direction: higher = stronger binding
Target: Histone acetyltransferase KAT6A, winged helix 2, GST fusion (KAT6A, Homo sapiens, UniProt Q92794, residues 85-181)
Notes: 8-mer, flanks averaged, mean of 2 arrays, mostly near background
Residues (chain): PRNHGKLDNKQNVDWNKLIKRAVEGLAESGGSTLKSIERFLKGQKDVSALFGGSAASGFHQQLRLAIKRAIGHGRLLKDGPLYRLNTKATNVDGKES
`GCATCCCC` has an E-score of 0.0972.
For `GGTAGTTA`, the E-score was -0.11.
With `CTCCTTGA` the E-score was -0.16.
For `CAGGACCG`, the E-score was 0.015.
For `CTTGCTTA`, the E-score was -0.0495.
The E-score of `CGTCCTCC` is reported as -0.115.
`CTGTCACC` has an E-score of -0.0607.

Study 3 — method: aptamer microarray, sandwich; molecule type: DNA with 2'F-ANA; medium: in vitro; tested at: 200 nM; with: Cy3 exosite-II aptamer, 400 nM; direction: higher = stronger binding
Target: Prothrombin, mature alpha-thrombin (F2, Homo sapiens, UniProt P00734)
Notes: whole 15-mer aptamer, many near background
`GGTTGGTGTGGTTGG (2'F-ANA at 2 3 4 5 6 7 11 15)` — result for “mean fluorescence intensity”: 68.3 a.u.
Under “mean fluorescence intensity”, `GGTTGGTGTGGTTGG (2'F-ANA at 3 8 9 15)` is recorded as 1110 a.u.
`GGTTGGTGTGGTTGG (2'F-ANA at 1 3 6 7 9 10 13 15)` — result for “mean fluorescence intensity”: 73.9 a.u.
`GGTTGGTGTGGTTGG (2'F-ANA at 2 3 4 7 11 12 13 14 15)` — result for “mean fluorescence intensity”: 307 a.u.

Further values, each from its own experiment
The fold induction of `PhoQ, residues 284 288 289 292 302 303 SSLVEF` is reported as 2.5 (PhoP, residues 12 14 15 18 19 NQGLL (Escherichia coli, UniProt P23836); Sort-seq, item: YFP reporter; E. coli; PhoQ-PhoP variant library, with: 10 µM Mg2+; reference: high Mg2+ state, higher = stronger signaling).
